# Assay results of several laboratories.
# ± marks the error that the study gave.
# APP: Amyloid-beta precursor protein (APP, Homo sapiens, UniProt P05067)
# Chain of UniProt P05067 (whole entry, looked up): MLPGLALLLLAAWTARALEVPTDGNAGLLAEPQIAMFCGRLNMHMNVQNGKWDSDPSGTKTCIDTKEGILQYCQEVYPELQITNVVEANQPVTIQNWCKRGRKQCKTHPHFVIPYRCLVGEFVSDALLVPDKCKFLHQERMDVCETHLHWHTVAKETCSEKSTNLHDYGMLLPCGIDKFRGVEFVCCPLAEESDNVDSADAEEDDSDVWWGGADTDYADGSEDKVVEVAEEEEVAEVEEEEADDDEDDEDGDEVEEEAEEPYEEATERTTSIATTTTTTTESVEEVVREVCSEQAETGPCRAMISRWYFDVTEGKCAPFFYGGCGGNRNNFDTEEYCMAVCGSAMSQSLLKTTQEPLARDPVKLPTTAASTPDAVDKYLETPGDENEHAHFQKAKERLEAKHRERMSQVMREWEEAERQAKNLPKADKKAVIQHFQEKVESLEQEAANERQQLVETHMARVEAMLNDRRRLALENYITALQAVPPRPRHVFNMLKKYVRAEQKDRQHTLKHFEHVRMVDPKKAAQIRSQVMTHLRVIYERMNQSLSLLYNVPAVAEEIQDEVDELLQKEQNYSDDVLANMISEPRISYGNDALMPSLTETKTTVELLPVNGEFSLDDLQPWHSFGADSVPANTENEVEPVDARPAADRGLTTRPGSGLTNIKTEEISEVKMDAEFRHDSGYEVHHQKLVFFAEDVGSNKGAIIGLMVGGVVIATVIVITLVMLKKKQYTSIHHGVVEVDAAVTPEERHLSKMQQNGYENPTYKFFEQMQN
# APP Aβ40 fibrils: Amyloid-beta precursor protein, Aβ40 fibrils (APP, Homo sapiens, UniProt P05067)
# APP Aβ42 aggregates: Amyloid-beta precursor protein, Aβ42 aggregates (APP, Homo sapiens, UniProt P05067)
Compound,target,assay,system,conditions,scale,measurement,result
CC[C@H](C)[C@@H]1NC(=O)[C@H]([C@@H](C)O)NC(=O)[C@H](Cc2ccc(O)cc2)NC(=O)[C@H](CCCNC(=N)N)NC(=O)[C@@H]2CCCN2C(=O)[C@H]2CCCN2C(=O)[C@H]([C@@H](C)O)NC(=O)[C@H](C(C)C)NC(=O)[C@H](C(C)C)NC(=O)[C@H](CCCCN)NC(=O)[C@H](CO)NC(=O)[C@@H](CCC(N)=O)NC(=O)[C@H](CO)NC(=O)[C@H](Cc2ccc(O)cc2)NC(=O)[C@H](CO)NC(=O)[C@H](Cc2ccc(O)cc2)NC(=O)[C@@H]2CCCN2C(=O)[C@H](CO)NC(=O)[C@H](CC(C)C)NC(=O)[C@H](CC(C)C)NC(=O)[C@H](C)NC(=O)[C@H](C)NC1=O,"Amyloid-beta precursor protein, Aβ40 (APP, Homo sapiens, UniProt P05067)","amyloid-beta aggregation, filtration",,"3 µM, 0 or 24 h, 37 °C, 0.45 µm filter, with: 30 µM amyloid-beta",,filterable fraction,~90%
COc1cc(C=CC(=O)CC(=O)C=Cc2ccc(OCC(=O)NCCOCCOCCOCC(F)(F)F)c(OC)c2)ccc1O,APP,"Aβ aggregation, SDS-PAGE western blot, refers to: Aβ1-42 75-200 kDa band",,"30 µM, 24 h, 37 °C, with: Aβ1-42 10 µM",reference: DMSO,band density,345 ± 75%
CC(C)C[C@@H]1NC(=O)CN(C)C(=O)CCCCC(=O)NCCCC[C@@H](C(=O)N[C@@H](CCCNC(=N)N)C(N)=O)NC(=O)[C@H](Cc2ccccc2)NC(=O)[C@H](Cc2ccccc2)NC(=O)c2ccccc2NC1=O,APP Aβ40 fibrils,fibril disruption,,"2-fold molar excess, pH 7.4, 37 °C, with: preformed Aβ1-40 fibrils",,ThT fluorescence,decreased
[123I]c1ccc2nc(-c3ccc(-n4ccnn4)nc3)cn2c1,"Amyloid-beta precursor protein, amyloid-beta (APP, Homo sapiens, UniProt P05067)",SPECT,"Alzheimer's disease patients, Frontal cortex",150 to 240 min,reference: cerebellum,SUVR,1.22 ± 0.32
[11CH3]Nc1ccc(-c2nc3ccc(O)cc3o2)cn1,APP,"binding, PET, reference Logan","Alzheimer's disease patients, white matter",,reference: cerebellum,distribution volume ratio,1.03 ± 0.06
CC[C@H](C)[C@H](NC(=O)[C@@H]1CCCN1C(=O)[C@@H](N)C(C)C)C(=O)N[C@@H](C)C(N)=O,APP,"amyloid aggregation, inhibitor, fluorescence",,"4 µM, 24 h",,inhibition,16.3%
COCCOCCOCCOC(=O)C(C#N)=Cc1ccc(N(C)C)cc1,APP Aβ42 aggregates,"binding, fluorescence spectroscopy",PBS,"4 µM, with: pre-aggregated Aβ(1-42) 5 µM",,emission maximum,470 nm
COCCOCCOCCOC(=O)/C(C#N)=C/c1ccc2cc(NCCN3CCOCC3)ccc2c1,APP Aβ42 aggregates,fluorescence,,with: aggregated Abeta42 5 µM,reference: free compound,emission intensity increase,2.9 fold
COCCOCCOCCOC(=O)C(C#N)=Cc1ccc(C=Cc2ccc(N(C)C)cc2)cc1,"Amyloid-beta precursor protein, amyloid-beta aggregates (APP, Homo sapiens, UniProt P05067)","IgG-amyloid beta binding, inhibitor, ELISA",,with: aggregated amyloid beta,,maximum inhibition,40%
COCCOCCOCCOCCOC(=O)/C(C#N)=C/c1ccc2cc(N3CCCCC3)ccc2c1,APP Aβ42 aggregates,fluorescence,,with: aggregated Abeta42 5 µM,,emission maximum,550 nm
CCN(CC)c1ccc(C=C(C#N)C(=O)OCCOCCOCCOC)cc1,APP Aβ42 aggregates,"binding, fluorescence spectroscopy",PBS,"4 µM, with: pre-aggregated Aβ(1-42) 5 µM",reference: probe without Aβ,fluorescence intensity,4.2 fold
CC[C@H](C)[C@H](NC(=O)[C@@H](NC(=O)[C@@H](N)C(C)C)C(C)C)C(=O)N[C@@H](C)C(=O)O,APP,"amyloid aggregation, inhibitor, fluorescence",,"4 µM, 24 h",,inhibition,60.6%
CC(C)C[C@@H]1NC(=O)CN(C)C(=O)CCC(=O)NCCCC[C@@H](C(=O)N[C@@H](CCCNC(=N)N)C(N)=O)NC(=O)[C@H](Cc2ccccc2)NC(=O)[C@H](Cc2ccccc2)NC(=O)c2ccccc2NC1=O,APP Aβ40 fibrils,fibril disruption,,"2-fold molar excess, pH 7.4, 37 °C, with: preformed Aβ1-40 fibrils",,ThT fluorescence,decreased

# Repeated from above:
Compound,target,assay,system,conditions,scale,measurement,result
CC[C@H](C)[C@H](NC(=O)[C@@H]1CCCN1C(=O)[C@@H](N)C(C)C)C(=O)N[C@@H](C)C(N)=O,APP,"amyloid aggregation, inhibitor, fluorescence",,"4 µM, 24 h",,inhibition,16.3%
COCCOCCOCCOC(=O)C(C#N)=Cc1ccc(N(C)C)cc1,APP Aβ42 aggregates,"binding, fluorescence spectroscopy",PBS,"4 µM, with: pre-aggregated Aβ(1-42) 5 µM",,emission maximum,470 nm
